Measurements of several laboratories.
Compare with care: the assays were run in different laboratories. ± marks the error that the study gave.
FURIN: Furin (FURIN, Homo sapiens, UniProt P09958)
PTPN1: Tyrosine-protein phosphatase non-receptor type 1 (PTPN1, Homo sapiens, UniProt P18031)
MCA2: Metacaspase-2 (MCA2, Trypanosoma brucei brucei, UniProt Q585F3)
HLA class I histocompatibility antigen, A alpha chain allele A*80:01: HLA class I histocompatibility antigen, A alpha chain, allele A*80:01 (Homo sapiens, UniProt P04439)

Chains of the proteins cited; added tags and fusions are not shown. Residues count along the entry.
UniProt P09958, whole entry, looked up: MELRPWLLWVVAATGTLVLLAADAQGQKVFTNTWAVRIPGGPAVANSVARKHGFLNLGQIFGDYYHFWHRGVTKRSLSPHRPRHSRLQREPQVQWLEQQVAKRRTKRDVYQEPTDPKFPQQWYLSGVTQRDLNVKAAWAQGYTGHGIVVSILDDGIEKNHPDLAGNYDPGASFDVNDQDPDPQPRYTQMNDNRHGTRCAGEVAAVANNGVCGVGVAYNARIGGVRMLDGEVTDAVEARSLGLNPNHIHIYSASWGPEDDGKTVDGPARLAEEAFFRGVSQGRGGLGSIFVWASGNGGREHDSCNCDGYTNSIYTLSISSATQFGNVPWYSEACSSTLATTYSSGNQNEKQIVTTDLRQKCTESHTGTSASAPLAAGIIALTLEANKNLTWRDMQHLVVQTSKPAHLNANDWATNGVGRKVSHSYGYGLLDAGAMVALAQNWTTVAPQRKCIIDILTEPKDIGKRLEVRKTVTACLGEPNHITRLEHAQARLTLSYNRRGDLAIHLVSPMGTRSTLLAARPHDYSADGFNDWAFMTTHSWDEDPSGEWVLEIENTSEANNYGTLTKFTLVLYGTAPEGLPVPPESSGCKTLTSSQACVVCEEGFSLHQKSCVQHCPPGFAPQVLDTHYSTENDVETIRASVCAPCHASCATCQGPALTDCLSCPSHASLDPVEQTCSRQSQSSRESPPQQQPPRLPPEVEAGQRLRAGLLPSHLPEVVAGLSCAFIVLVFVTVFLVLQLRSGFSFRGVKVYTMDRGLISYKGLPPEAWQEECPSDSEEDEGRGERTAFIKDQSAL
UniProt P18031, 1-321 limits assumed: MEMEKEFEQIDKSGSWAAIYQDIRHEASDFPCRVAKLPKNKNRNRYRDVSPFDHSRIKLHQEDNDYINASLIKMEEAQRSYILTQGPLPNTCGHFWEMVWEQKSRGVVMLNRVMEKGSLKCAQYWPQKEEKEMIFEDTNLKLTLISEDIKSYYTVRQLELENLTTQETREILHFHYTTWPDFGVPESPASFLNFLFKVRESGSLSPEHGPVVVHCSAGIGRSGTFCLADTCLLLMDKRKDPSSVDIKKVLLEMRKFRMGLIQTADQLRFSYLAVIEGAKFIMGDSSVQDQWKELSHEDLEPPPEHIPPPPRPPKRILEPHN
UniProt Q585F3, whole entry, looked up: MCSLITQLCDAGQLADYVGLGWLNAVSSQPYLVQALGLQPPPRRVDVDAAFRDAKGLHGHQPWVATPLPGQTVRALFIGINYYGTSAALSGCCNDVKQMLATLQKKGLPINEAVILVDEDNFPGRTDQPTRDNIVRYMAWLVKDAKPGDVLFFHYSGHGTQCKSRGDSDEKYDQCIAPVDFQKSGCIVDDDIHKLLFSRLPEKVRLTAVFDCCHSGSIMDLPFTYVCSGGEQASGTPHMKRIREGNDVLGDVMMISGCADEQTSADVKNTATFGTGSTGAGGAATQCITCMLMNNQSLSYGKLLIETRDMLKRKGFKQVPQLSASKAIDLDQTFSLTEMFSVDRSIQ
UniProt P22303, whole entry, looked up: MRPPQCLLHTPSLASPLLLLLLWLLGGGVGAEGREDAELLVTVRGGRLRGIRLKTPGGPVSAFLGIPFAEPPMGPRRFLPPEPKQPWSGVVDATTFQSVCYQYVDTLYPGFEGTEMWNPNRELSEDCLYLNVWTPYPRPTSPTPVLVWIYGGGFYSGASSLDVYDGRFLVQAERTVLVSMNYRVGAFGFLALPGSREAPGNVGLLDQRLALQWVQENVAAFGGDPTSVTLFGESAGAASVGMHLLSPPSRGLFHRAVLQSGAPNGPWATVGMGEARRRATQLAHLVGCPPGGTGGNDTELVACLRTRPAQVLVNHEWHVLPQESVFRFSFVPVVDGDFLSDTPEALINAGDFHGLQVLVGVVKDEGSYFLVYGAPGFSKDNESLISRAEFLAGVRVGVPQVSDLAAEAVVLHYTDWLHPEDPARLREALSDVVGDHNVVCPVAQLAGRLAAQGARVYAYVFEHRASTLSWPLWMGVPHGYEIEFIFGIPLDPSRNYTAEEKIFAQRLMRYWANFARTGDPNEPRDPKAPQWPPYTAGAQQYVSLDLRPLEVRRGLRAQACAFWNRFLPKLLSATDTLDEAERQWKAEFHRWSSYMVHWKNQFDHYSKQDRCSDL
UniProt Q99816, whole entry, looked up: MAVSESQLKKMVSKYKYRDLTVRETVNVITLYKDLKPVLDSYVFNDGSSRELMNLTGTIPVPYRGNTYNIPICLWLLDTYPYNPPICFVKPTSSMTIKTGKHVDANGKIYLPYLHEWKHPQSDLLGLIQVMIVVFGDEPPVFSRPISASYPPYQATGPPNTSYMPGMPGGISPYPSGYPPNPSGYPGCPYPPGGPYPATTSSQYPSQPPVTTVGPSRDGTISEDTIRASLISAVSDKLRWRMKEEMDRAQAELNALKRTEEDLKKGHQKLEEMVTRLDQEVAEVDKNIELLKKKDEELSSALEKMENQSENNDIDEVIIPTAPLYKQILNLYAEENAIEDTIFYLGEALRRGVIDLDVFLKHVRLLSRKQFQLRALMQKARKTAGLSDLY
UniProt P46098, 24-478 limits assumed: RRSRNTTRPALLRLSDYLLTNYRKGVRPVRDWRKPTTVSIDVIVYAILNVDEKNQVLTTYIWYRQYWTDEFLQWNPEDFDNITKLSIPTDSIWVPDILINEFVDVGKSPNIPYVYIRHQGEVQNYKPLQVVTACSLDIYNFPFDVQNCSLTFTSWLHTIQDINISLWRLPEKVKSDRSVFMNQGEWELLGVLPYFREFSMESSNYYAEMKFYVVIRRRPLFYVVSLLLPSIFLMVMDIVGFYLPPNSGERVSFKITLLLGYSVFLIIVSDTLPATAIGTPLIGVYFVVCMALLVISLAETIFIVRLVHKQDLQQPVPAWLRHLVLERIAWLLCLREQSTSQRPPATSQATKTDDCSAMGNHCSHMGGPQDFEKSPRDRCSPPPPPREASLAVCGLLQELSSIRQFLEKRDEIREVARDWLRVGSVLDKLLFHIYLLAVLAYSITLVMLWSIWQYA
UniProt P43144, 26-479 limits assumed: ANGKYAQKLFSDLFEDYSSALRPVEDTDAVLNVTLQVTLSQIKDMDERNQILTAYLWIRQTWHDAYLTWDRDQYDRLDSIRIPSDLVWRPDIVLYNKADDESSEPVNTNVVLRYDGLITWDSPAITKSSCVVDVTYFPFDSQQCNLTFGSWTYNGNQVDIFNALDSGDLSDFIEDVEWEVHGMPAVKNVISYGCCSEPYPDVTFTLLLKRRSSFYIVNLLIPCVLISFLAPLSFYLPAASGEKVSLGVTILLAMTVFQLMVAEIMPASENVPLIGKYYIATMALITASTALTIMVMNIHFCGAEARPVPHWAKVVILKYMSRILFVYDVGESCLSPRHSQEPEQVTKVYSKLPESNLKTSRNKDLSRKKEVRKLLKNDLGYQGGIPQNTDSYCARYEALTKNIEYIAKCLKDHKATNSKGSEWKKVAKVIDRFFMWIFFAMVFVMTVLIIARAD
UniProt Q9JLB5, 25-447 limits assumed: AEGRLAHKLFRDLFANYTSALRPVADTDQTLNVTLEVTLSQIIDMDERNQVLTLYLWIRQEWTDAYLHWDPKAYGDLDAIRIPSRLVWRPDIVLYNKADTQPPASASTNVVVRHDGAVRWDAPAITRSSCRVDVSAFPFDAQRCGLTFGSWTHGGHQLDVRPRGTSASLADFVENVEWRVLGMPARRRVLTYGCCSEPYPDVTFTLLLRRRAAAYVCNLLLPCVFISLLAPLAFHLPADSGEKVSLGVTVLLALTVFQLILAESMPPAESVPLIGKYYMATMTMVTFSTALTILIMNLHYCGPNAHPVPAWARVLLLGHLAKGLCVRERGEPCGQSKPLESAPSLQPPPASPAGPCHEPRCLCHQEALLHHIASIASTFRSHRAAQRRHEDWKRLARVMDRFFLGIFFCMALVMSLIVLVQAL

`CCOP(=O)(OCC)Oc1ccc2c(C)cc(=O)oc2c1` has an efficacy of -98.6 ± 5.66% (Acetylcholinesterase (ACHE, Homo sapiens, UniProt P22303); enzyme activity).
With `CC(C)C[C@H](NC(=O)[C@H](CC(N)=O)NC(=O)c1ccccc1N)C(=O)N[C@@H](CCCNC(=N)N)C(=O)N[C@@H](CCCNC(=N)N)C(=O)N[C@@H](CCCNC(=N)N)C(=O)N[C@@H](CCCNC(=N)N)C(=O)N[C@@H](CC(=O)O)C(=O)N[C@@H](CC(C)C)C(=O)N[C@H](C(=O)N[C@@H](CC(=O)O)C(=O)N[C@@H](CCC(N)=O)C(=O)NCCNc1ccc([N+](=O)[O-])cc1[N+](=O)[O-])C(C)C` the kcat was 1.8 s⁻¹ (FURIN; substrate; pH 7).
With `CC(C)C[C@H](NC(=O)[C@@H]1CCCN1C(=O)[C@@H](NC(=O)[C@@H](NC(=O)[C@H](CC(N)=O)NC(=O)[C@@H](NC(=O)[C@@H](N)Cc1ccc(O)cc1)[C@@H](C)O)C(C)C)C(C)C)C(=O)N[C@H](C(=O)N[C@@H](Cc1ccc(O)cc1)C(=O)O)C(C)C` the z-score was -6.47 (HLA class I histocompatibility antigen, B alpha chain, allele B*46:01 (Homo sapiens, UniProt P01889); direction not given).
`CC(=O)N[C@@H](CC(=O)O)C(=O)N[C@@H](C)C(=O)N[C@@H](C)C(=O)N[C@@H](CC(=O)O)C(=O)N[C@H](C(=O)N[C@@H](Cc1ccc(OP(=O)(O)O)cc1)C(=O)N[C@@H](C)C(=O)N[C@@H](C)C(N)=O)C(C)C` has a kcat/Km of 3.1e+06 M⁻¹ s⁻¹ (PTPN1; substrate, continuous UV; pH 7.4).
`CC(C)C[C@H](NC(=O)CNC(=O)[C@H](CCCNC(=N)N)NC(=O)[C@H](CCCCN)NC(=O)[C@H](CCCCN)NC(=O)[C@H](CCCNC(=N)N)NC(=O)[C@H](CCCNC(=N)N)NC(=O)[C@H](CCCNC(=N)N)NC(=O)[C@H](CCC(=O)O)NC(=O)[C@H](CCCNC(=N)N)NC(=O)c1ccccc1N)C(=O)N[C@@H](Cc1ccccc1)C(=O)NCC(=O)N[C@@H](CCC(N)=O)C(=O)NCCNc1ccc([N+](=O)[O-])cc1[N+](=O)[O-]` has a kcat of 1.9 s⁻¹ (FURIN; substrate; pH 7).
`CC(C)C[C@H](NC(=O)[C@H](CC(C)C)NC(=O)[C@@H](NC(=O)[C@H](CS)NC(=O)[C@H](CC(C)C)NC(=O)[C@H](C)NC(=O)[C@H](CC(=O)O)NC(=O)[C@H](Cc1ccc(O)cc1)NC(=O)[C@@H](N)Cc1c[nH]c2ccccc12)C(C)C)C(=O)O` has a z-score of -4.15 (HLA class I histocompatibility antigen, C alpha chain, allele C*04:01 (Homo sapiens, UniProt P10321); direction not given).
For `CC(=O)N[C@@H](C)C(=O)N[C@@H](C)C(=O)N[C@@H](Cc1ccc(OP(=O)(O)O)cc1)C(=O)N[C@@H](CC(=O)O)C(=O)N[C@@H](CC(C)C)C(=O)N[C@@H](CC(=O)O)C(=O)N[C@@H](CCC(=O)O)C(=O)N[C@@H](Cc1ccc(O)cc1)C(N)=O`, the kcat was 34 ± 1 s⁻¹ (PTPN1; substrate; pH 7.4, catalytic domain).
With `CC(C)[C@H](NC(=O)[C@H](CCCNC(=N)N)NC(=O)CN)C(=O)N[C@H](C(=O)N[C@@H](CCC(=O)O)C(=O)N1CCC[C@H]1C(=O)N[C@@H](CO)C(=O)N[C@@H](C)C(=O)N1CCC[C@H]1C(=O)N1CCC[C@H]1C(=O)N[C@@H](Cc1c[nH]c2ccccc12)C(=O)N[C@@H](CCC(=O)O)C(=O)NCC(=O)N1CCC[C@H]1C(=O)O)C(C)C` the Tm shift was 3.7 °C (Tumor susceptibility gene 101 protein, UEV domain (Homo sapiens, UniProt Q99816); thermal stability; 800 µM; relative to: free protein, higher = stabilisation).
For `C[C@H](NC(=O)[C@H](CO)NC(=O)[C@H](CO)NC(=O)[C@H](CCCNC(=N)N)NC(=O)[C@H](CCCCN)NC(=O)[C@H](CCCCN)NC(=O)c1ccccc1N)C(=O)N[C@@H](CCC(N)=O)C(=O)NCCNc1ccc([N+](=O)[O-])cc1[N+](=O)[O-]`, the Km was 0.29 µM (MCA2; enzyme activity, substrate, FRET hydrolysis; Trypanosoma brucei; pH 7.4).
With `CC[C@H](C)[C@H](NC(=O)[C@@H](N)CCC(=O)O)C(=O)N[C@@H](CC(N)=O)C(=O)N[C@@H](C)C(=O)N[C@@H](Cc1ccccc1)C(=O)N[C@H](C(=O)N[C@@H](C)C(=O)NCC(=O)N[C@@H](CCSC)C(=O)O)C(C)C` the z-score was -2.77 (HLA class I histocompatibility antigen, A alpha chain, allele A*26:03 (Homo sapiens, UniProt P04439); direction not given).
The kcat/Km of `CC(C)[C@H](NC(=O)[C@H](Cc1c[nH]cn1)NC(=O)c1ccccc1N)C(=O)N[C@@H](CCCNC(=N)N)C(=O)N[C@@H](CCCCN)C(=O)N[C@@H](CCCNC(=N)N)C(=O)N[C@@H](CCCNC(=N)N)C(=O)N[C@@H](C)C(=O)N[C@@H](CC(=O)O)C(=O)N1CCC[C@H]1C(=O)N[C@@H](CC(=O)O)C(=O)N[C@@H](CCC(N)=O)C(=O)NCCNc1ccc([N+](=O)[O-])cc1[N+](=O)[O-]` is reported as 109000 M⁻¹ s⁻¹ (FURIN; substrate).
`c1ccc(CCN2CCN=C2Cc2ccccc2)cc1` has an inhibition of 78 ± 2.1% (5-hydroxytryptamine receptor 3A (HTR3A, Homo sapiens, UniProt P46098); calcium signal; HEK; 10.3 µM, together with: 5-HT 1 µM).
With `C[C@H](NC(=O)[C@H](CCCCN)NC(=O)c1ccccc1N)C(=O)N[C@@H](CCCNC(=N)N)C(=O)N[C@@H](CO)C(=O)N[C@@H](CO)C(=O)N[C@@H](C)C(=O)N[C@@H](CCC(N)=O)C(=O)NCCNc1ccc([N+](=O)[O-])cc1[N+](=O)[O-]` the Km was 0.29 µM (MCA2; enzyme activity, substrate, FRET hydrolysis; Trypanosoma brucei; pH 7.4).
With `CC(C)C[C@H](NC(=O)c1ccccc1N)C(=O)N[C@@H](CCCCN)C(=O)N[C@@H](CCCNC(=N)N)C(=O)N[C@@H](CCCNC(=N)N)C(=O)N[C@@H](CCCCN)C(=O)N[C@@H](CCCNC(=N)N)C(=O)N[C@@H](C)C(=O)N[C@H](C(=O)N[C@@H](CC(N)=O)C(=O)N1CCC[C@H]1C(=O)N[C@@H](CCC(N)=O)C(=O)NCCNc1ccc([N+](=O)[O-])cc1[N+](=O)[O-])C(C)C` the Km was 6.7 µM (FURIN; substrate; pH 7).
`CC(=O)N[C@@H](C)C(=O)N[C@@H](C)C(=O)N[C@@H](Cc1ccc(OP(=O)(O)O)cc1)C(=O)N[C@@H](C)C(=O)N[C@@H](C)C(=O)N[C@@H](CC(=O)O)C(=O)N[C@@H](CC(=O)O)C(=O)N[C@@H](C)C(N)=O` gave a kcat of 29 ± 1 s⁻¹ (PTPN1; substrate; pH 7.4, catalytic domain).
`N=C(N)NCCC[C@H](NC(=O)c1ccccc1N)C(=O)N[C@@H](Cc1c[nH]cn1)C(=O)N[C@@H](CCCNC(=N)N)C(=O)N[C@@H](CCC(N)=O)C(=O)N1CCC[C@H]1C(=O)N[C@@H](CCCNC(=N)N)C(=O)NCC(=O)N[C@@H](Cc1c[nH]c2ccccc12)C(=O)N[C@@H](CCC(=O)O)C(=O)N[C@@H](CCC(N)=O)C(=O)N[C@@H](CCC(N)=O)C(=O)NCCNc1ccc([N+](=O)[O-])cc1[N+](=O)[O-]` has a kcat of 0.54 s⁻¹ (FURIN; substrate; pH 7).
`C[C@H](NC(=O)[C@H](CO)NC(=O)CNC(=O)[C@H](CCCNC(=N)N)NC(=O)[C@H](C)NC(=O)[C@H](CCCCN)NC(=O)c1ccccc1N)C(=O)N[C@@H](CCC(N)=O)C(=O)NCCNc1ccc([N+](=O)[O-])cc1[N+](=O)[O-]` gave a Km of 2.2 µM (MCA2; enzyme activity, substrate, FRET hydrolysis; Trypanosoma brucei; pH 7.4).
For `CC[C@H](C)[C@H](NC(=O)[C@H](CC(C)C)NC(=O)[C@H](C)NC(=O)[C@H](CCCNC(=N)N)NC(=O)[C@@H]1CCCN1C(=O)[C@H](CC(=O)O)NC(=O)[C@H](Cc1ccccc1)NC(=O)CNC(=O)[C@@H](N)CCC(=O)O)C(=O)O`, the z-score was 0.38 (HLA class I histocompatibility antigen, A alpha chain allele A*80:01; direction not given).
`N#Cc1c(-c2ccc(Cl)cc2Cl)n(-c2nc(-c3ccc(Cl)cc3)c3c(NC(=O)c4ccccc4)nnc-3[nH]2)[nH]c1=O` has a CC50 of over 100 µM (U-251; SRB).
For `CC[C@H](C)[C@H](NC(=O)[C@@H](NC(=O)[C@H](Cc1ccccc1)NC(=O)[C@H](CCC(=O)O)NC(=O)CNC(=O)[C@H](Cc1ccc(OP(=O)(O)O)cc1)NC(=O)[C@@H](NC(=O)[C@H](CC(=O)O)NC(=O)[C@H](C)NC(=O)[C@@H](NC(=O)[C@H](CC(=O)O)NC(C)=O)[C@@H](C)O)C(C)C)[C@@H](C)O)C(N)=O`, the kcat/Km was 4.8e+06 M⁻¹ s⁻¹ (PTPN1; substrate, continuous UV; pH 7.4).
`CC[C@H](C)[C@H](NC(=O)[C@H](Cc1c[nH]cn1)NC(=O)CNC(=O)[C@H](CCC(=O)O)NC(=O)[C@H](CC(C)C)NC(=O)[C@H](CC(=O)O)NC(=O)[C@H](CC(C)C)NC(=O)[C@@H](N)CC(C)C)C(=O)N[C@@H](CC(C)C)C(=O)O` has a z-score of 0.38 (HLA class I histocompatibility antigen, A alpha chain allele A*80:01; direction not given).
The kcat/Km of `CC(=O)N[C@@H](C)C(=O)N[C@@H](Cc1ccc(OP(=O)(O)O)cc1)C(=O)N[C@@H](Cc1ccc(OP(=O)(O)O)cc1)C(=O)N[C@@H](Cc1c[nH]c2ccccc12)C(=O)N[C@H](C(=O)N[C@@H](C)C(=O)N[C@@H](Cc1ccc(OP(=O)(O)O)cc1)C(=O)N[C@@H](C)C(=O)N[C@@H](C)C(N)=O)[C@@H](C)O` is reported as 1.51e+07 M⁻¹ s⁻¹ (PTPN1; substrate, continuous UV; pH 7.4).
The IC50 of `CC[C@H](C)[C@@H]1NC(=O)[C@H](CCC(=O)O)NC(=O)[C@@H]2CCCN2C(=O)[C@H](Cc2c[nH]cn2)NC(=O)[C@H](CCCNC(=N)N)NC(=O)[C@H](C(C)C)NC(=O)[C@H](CC(N)=O)NC(=O)[C@@H]2CSSC[C@H](NC(=O)CN)C(=O)N[C@@H](CSSC[C@@H](C(N)=O)NC1=O)C(=O)N[C@@H](CO)C(=O)N[C@@H](Cc1c[nH]cn1)C(=O)N1CCC[C@H]1C(=O)N[C@@H](C(C)C)C(=O)N2` is reported as over 10 µM (Nicotinic acetylcholine receptor alpha9/alpha10 (Rattus norvegicus, UniProt P43144+Q9JLB5); ion current, antagonist, two-electrode voltage clamp; Xenopus oocytes; rat, together with: ACh 100 µM).
The kcat/Km of `CC(=O)N[C@@H](C)C(=O)N[C@@H](Cc1c[nH]c2ccccc12)C(=O)N[C@@H](CO)C(=O)N[C@@H](Cc1ccc(OP(=O)(O)O)cc1)C(=O)N[C@@H](C)C(=O)N[C@@H](CC(=O)O)C(=O)N[C@@H](Cc1ccc(OP(=O)(O)O)cc1)C(=O)N[C@@H](C)C(=O)N[C@@H](C)C(N)=O` is reported as 2.35e+07 M⁻¹ s⁻¹ (PTPN1; substrate, continuous UV; pH 7.4).
`CSCC[C@H](N)C(=O)N[C@H](C(=O)N[C@@H](Cc1ccc(O)cc1)C(=O)N[C@@H](CCCCN)C(=O)N[C@@H](C)C(=O)N[C@@H](C)C(=O)N[C@H](C(=O)N[C@@H](CC(C)C)C(=O)O)C(C)C)[C@@H](C)O` has a z-score of 0.12 (HLA class I histocompatibility antigen, A alpha chain, allele A*26:01 (Homo sapiens, UniProt P04439); direction not given).

Repeated from above:
The kcat/Km of `CC(=O)N[C@@H](C)C(=O)N[C@@H](Cc1ccc(OP(=O)(O)O)cc1)C(=O)N[C@@H](Cc1ccc(OP(=O)(O)O)cc1)C(=O)N[C@@H](Cc1c[nH]c2ccccc12)C(=O)N[C@H](C(=O)N[C@@H](C)C(=O)N[C@@H](Cc1ccc(OP(=O)(O)O)cc1)C(=O)N[C@@H](C)C(=O)N[C@@H](C)C(N)=O)[C@@H](C)O` is reported as 1.51e+07 M⁻¹ s⁻¹ (PTPN1; substrate, continuous UV; pH 7.4).
The IC50 of `CC[C@H](C)[C@@H]1NC(=O)[C@H](CCC(=O)O)NC(=O)[C@@H]2CCCN2C(=O)[C@H](Cc2c[nH]cn2)NC(=O)[C@H](CCCNC(=N)N)NC(=O)[C@H](C(C)C)NC(=O)[C@H](CC(N)=O)NC(=O)[C@@H]2CSSC[C@H](NC(=O)CN)C(=O)N[C@@H](CSSC[C@@H](C(N)=O)NC1=O)C(=O)N[C@@H](CO)C(=O)N[C@@H](Cc1c[nH]cn1)C(=O)N1CCC[C@H]1C(=O)N[C@@H](C(C)C)C(=O)N2` is reported as over 10 µM (Nicotinic acetylcholine receptor alpha9/alpha10 (Rattus norvegicus, UniProt P43144+Q9JLB5); ion current, antagonist, two-electrode voltage clamp; Xenopus oocytes; rat, together with: ACh 100 µM).
